# Measured values collected from several papers.
# Protocols differ between the studies behind these lines.
# Target: Transient receptor potential cation channel subfamily M member 6 (TRPM6, Homo sapiens, UniProt Q9BX84)
SMILES,test,conditions,scale,remaining binding [%]
CCN1CCN(Cc2ccc(C(=O)Nc3ccc(C)c(NCc4cnc5[nH]ccc5c4OC)c3)cc2C(F)(F)F)CC1,"binding, competition with immobilised ligand",1 µM,,16
Nc1ncc2c(n1)-c1c([nH]c3ccc(C4=CCOCC4)cc13)CCC2,"binding, competition with immobilised ligand",1 µM,,100
C=CC(=O)N1CCCC(n2c(=O)c3ncccc3n(Cc3ccc(Oc4ccccc4)cc3)c2=O)C1 (stereo not shown),"cell-free assay, competition with immobilised ligand",1 µM,,85
CNC1C[S+]2CC[S+]3CC[S+](C1)[Ru-4]321([N]=C=S)[n]2c3ccc(OC)cc3c3c4c(c5cc(F)c[n+]1c5c32)C(=O)NC4=O (stereo not shown),KinomeScan,0.1 µM,baseline: untreated,100
COc1c(Cl)cccc1Nc1c(-c2ccncc2C#C[C@@]2(C)CCCN2C(=O)/C=C/CN(C)C)[nH]c2c1C(=O)NCC2,"cell-free assay, competition with immobilised ligand",3 µM,,92
Cc1cnc2nc1Nc1cccc(c1)COC/C=C/COCc1cc(ccc1OCCN1CCOCC1)N2,"binding, competition with immobilised ligand",0.1 µM,,76
COc1cc(Nc2nc(C)cc(-c3cnn4nc(OC)ccc34)n2)cc(C(F)(F)F)c1,"binding, competition with immobilised ligand",1 µM,,96
CNC(=O)C1CCN(c2cc(C)c(F)cc2NC(=O)c2ccc(-c3cc(O)ccc3C)c(C)c2)CC1,"binding, competition with immobilised ligand",1 µM,,91
CCN1CCN(Cc2ccc(NC(=O)c3ccc(C)c(NC(=O)c4cncc(-c5cnn(C)c5)c4)c3)cc2C(F)(F)F)CC1,"binding, competition with immobilised ligand",1 µM,,100
CC(C)=CC1OC(C)(C)C2C=C3C(=O)C(Cl)=CC(O)C3C3C(O)C4OC4C(=O)C132 (stereo not shown),"cell-free assay, competition with immobilised ligand",10 µM,,81
C=CC(=O)N1CCc2ccc(-n3c(=O)ccc4cnc5ccc(-c6cnn(C)c6)cc5c43)cc21,KINOMEscan,1 µM,baseline: DMSO control,87
Cc1ccc(-c2c(/C=C(\C#N)C(=O)NC(C)C)n(CCCO)c3ncnc(N)c23)cc1,"cell-free assay, competition with immobilised ligand",1 µM,,78
COc1cc(Nc2nccc(-c3cnn4nc(OC)ccc34)n2)cc(C(F)(F)F)c1,"binding, competition with immobilised ligand",1 µM,,100

# A few entries again:
SMILES,test,conditions,scale,remaining binding [%]
COc1cc(Nc2nccc(-c3cnn4nc(OC)ccc34)n2)cc(C(F)(F)F)c1,"binding, competition with immobilised ligand",1 µM,,100
